# Measurements gathered from unrelated publications.
# Lines come from different studies, so protocols differ.
Molecule,tested on,test,system,conditions,quantity,value
Nc1ncnc2c([C@@H]3N[C@H](CO)[C@@H](O)[C@H]3O)c[nH]c12,Marburg marburgvirus,viral RNA in supernatant,"HeLa, Musoke","0.8 µM, 12 h",inhibition,7.6%
LPNDDTLRVEAFEYY,human CD4 T cells,AIM,peptide,,responding donors,9%
CC[C@H](C)[C@H](NC(=O)[C@H](CC(C)C)NC(=O)[C@H](Cc1c[nH]c2ccccc12)NC(=O)[C@H](CCC(N)=O)NC(=O)[C@@H](NC(=O)[C@H](Cc1ccccc1)NC(=O)[C@H](C)NC(=O)[C@H](CCCCNC(=O)COCCOCCNC(=O)COCCOCCNC(=O)CC[C@H](NC(=O)CCCCCCCCCCCCCCCCCCC(=O)O)C(=O)O)NC(=O)[C@H](CCC(N)=O)NC(=O)[C@H](C)NC(=O)[C@@H](NC(=O)[C@H](CCCCN)NC(=O)[C@H](CC(=O)O)NC(=O)[C@H](CC(C)C)NC(=O)C(C)(C)NC(=O)[C@@H](NC(=O)[C@H](CO)NC(=O)[C@H](Cc1ccc(O)cc1)NC(=O)[C@H](CC(=O)O)NC(=O)[C@H](CO)NC(=O)[C@@H](NC(=O)[C@H](Cc1ccccc1)NC(=O)[C@@H](NC(=O)CNC(=O)[C@H](CCC(=O)O)NC(=O)C(C)(C)NC(=O)[C@@H](N)Cc1ccc(O)cc1)[C@@H](C)O)[C@@H](C)O)[C@@H](C)CC)[C@@H](C)CC)C(C)C)C(=O)N[C@@H](C)C(=O)NCC(=O)NCC(=O)N1CCC[C@H]1C(=O)N[C@@H](CO)C(=O)N[C@@H](CO)C(=O)NCC(=O)N[C@@H](C)C(=O)N1CCC[C@H]1C(=O)N1CCC[C@H]1C(=O)N1CCC[C@H]1C(=O)N[C@@H](CO)C(N)=O,,,healthy human,"8.0 mg, single ascending dose",feeling hot,28.6%
SEMVMCGGSLYVKPG,human CD4 T cells,AIM,peptide,,responding donors,6%
C[C@@]1(c2cc(-c3cncnc3)c(F)cc2F)CCSC(N)=N1,"Replicase polyprotein 1ab, main protease (rep, Severe acute respiratory syndrome coronavirus 2, UniProt P0DTD1)","reporter gene (Gaussia luciferase), inhibitor",,20 µM,inhibition,2.09%

# Some of these lines once more:
Molecule,tested on,test,system,conditions,quantity,value
SEMVMCGGSLYVKPG,human CD4 T cells,AIM,peptide,,responding donors,6%
